Assay results of several laboratories.
Each line is one published result; not all experiments were run side by side. Values joined by “and” are separate records of one study, mostly repeats; a detail may differ. ± gives the spread as reported.
YWHAG/RELA phospho-Ser45 p65 peptide: YWHAG/RELA, phospho-Ser45 p65 peptide (Homo sapiens, UniProt P61981+Q04206)
Chain of UniProt Q04206 (whole entry, looked up): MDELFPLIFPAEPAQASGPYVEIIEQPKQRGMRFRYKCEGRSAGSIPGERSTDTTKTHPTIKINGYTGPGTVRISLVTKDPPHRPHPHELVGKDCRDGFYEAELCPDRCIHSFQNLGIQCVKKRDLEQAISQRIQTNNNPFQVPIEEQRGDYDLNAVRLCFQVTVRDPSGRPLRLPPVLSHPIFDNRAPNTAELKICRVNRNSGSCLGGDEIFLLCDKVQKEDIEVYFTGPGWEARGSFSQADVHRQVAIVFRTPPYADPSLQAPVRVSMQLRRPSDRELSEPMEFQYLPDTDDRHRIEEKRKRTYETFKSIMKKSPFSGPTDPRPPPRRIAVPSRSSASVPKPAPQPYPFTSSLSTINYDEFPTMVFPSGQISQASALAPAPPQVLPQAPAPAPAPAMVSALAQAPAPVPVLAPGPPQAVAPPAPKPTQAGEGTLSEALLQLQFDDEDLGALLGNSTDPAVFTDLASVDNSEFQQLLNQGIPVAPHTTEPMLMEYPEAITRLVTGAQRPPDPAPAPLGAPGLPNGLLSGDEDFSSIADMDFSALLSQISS
Chain of UniProt P61981 (whole entry, looked up): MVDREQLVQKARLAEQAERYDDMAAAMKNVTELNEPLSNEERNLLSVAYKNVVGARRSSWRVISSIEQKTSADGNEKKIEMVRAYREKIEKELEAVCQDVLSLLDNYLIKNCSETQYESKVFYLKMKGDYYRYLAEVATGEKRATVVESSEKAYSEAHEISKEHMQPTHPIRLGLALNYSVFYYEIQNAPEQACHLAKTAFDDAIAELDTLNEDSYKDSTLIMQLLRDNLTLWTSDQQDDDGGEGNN
Nuclear receptor subfamily 2 group C member 2 ligand-binding domain: Nuclear receptor subfamily 2 group C member 2, ligand-binding domain (Homo sapiens, UniProt P49116)
Chain of UniProt P49116 (whole entry, looked up): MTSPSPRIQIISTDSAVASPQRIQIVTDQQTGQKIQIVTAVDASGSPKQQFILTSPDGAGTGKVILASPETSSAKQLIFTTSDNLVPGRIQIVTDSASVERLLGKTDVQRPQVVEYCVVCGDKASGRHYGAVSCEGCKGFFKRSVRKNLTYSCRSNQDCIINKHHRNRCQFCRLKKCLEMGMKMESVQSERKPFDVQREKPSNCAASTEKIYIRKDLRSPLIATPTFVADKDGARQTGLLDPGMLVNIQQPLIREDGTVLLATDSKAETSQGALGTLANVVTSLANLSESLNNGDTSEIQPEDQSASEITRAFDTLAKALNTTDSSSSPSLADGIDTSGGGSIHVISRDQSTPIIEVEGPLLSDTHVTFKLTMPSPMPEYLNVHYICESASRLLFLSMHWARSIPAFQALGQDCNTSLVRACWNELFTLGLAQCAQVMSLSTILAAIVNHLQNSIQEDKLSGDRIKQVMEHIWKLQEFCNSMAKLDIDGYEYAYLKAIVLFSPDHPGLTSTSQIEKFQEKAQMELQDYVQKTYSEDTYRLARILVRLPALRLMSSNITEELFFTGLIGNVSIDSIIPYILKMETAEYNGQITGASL

[Cl-].[Cl-].[Ru+2].c1cnc2c(c1)ccc1cccnc12.c1cnc2c(c1)ccc1cccnc12.c1csc(-c2ccc(-c3ccc(-c4ccc(-c5nc6c7cccnc7c7ncccc7c6[nH]5)s4)s3)s2)c1 — phototherapeutic index (SK-MEL-28; 1% O2): 985
CC1CCCN(c2cc(C=O)ccc2[N+](=O)[O-])C1 (stereo not shown) — EC50 (YWHAG/RELA phospho-Ser45 p65 peptide; ternary complex formation, stabilizer, fluorescence anisotropy): > 1000 µM
COc1cc(/C=C/C(=O)N2CCC=CC2=O)cc(OC)c1OC — mRNA level (MDA-MB-468; quantitative RT-PCR, item: PUMA; 30 µM, 8 h; relative to: untreated): 502 ± 54.3%
N=C1NC(=O)/C(=C/c2ccc(O)cc2)S1 — viability (OCI-Ly1; 0.1 µM, 120 h): 197%
C=C1C(=O)O[C@@H]2C[C@@]3(C)CCCC(=C)[C@@H]3C[C@H]12 — apoptotic cells (COS-7; 10 µM, 24 h, 0.1% DMSO, unit not given; relative to: vehicle control): 0.47 ± 0.12
COc1ccc(NC(=S)N/N=C/c2cccc3cc4ccccc4nc23)cc1 — early apoptotic cells (HeLa; annexin V/PI flow cytometry; concentration not given, 48 h, together with: N-acetylcysteine): 3.2 ± 0.1%
CCn1cc(-c2cc(Cn3ccoc3=N)cc3c2CCN([C@@H](C)c2cc(OC)ccn2)C3=O)c(C(F)(F)F)n1 — EC50 (TE-11; cell growth, inhibitor; 120 h): 0.0343 µM
Nc1nc(=S)c2[nH]cnc2[nH]1 — viability (OCI-Ly1; 0.5 µM, 120 h): 66.2%
CCN1CCCC1CNC(=O)c1cc(S(=O)(=O)CC)c(N)cc1OC (stereo not shown) — Kd (Nuclear receptor subfamily 2 group C member 2 ligand-binding domain; SPR imaging): 0.04 nM
Cn1cc(-c2ccc(-c3cncc(Cl)c3N3CCC4(CCNC4=O)CC3)cc2)cn1 — log2 fold change (COLO 205; gene expression, microarray, item: BCL2L1 mRNA; concentration not given, 2 h; relative to: untreated cells): 2.24
C[C@H](Nc1ccc2c(c1)OCCn1cc(N3C(=O)OC[C@H]3C(F)F)nc1-2)C(N)=O — Hill coefficient GR curve (HCC1954; cell growth, CellTiter-Glo; 120 h): 0.783
CC(C)[C@H](N)C(=O)N1CCC[C@H]1B(O)O — late apoptotic cells (MV4-11; annexin V/PI flow cytometry, item: annexin V+ PI+; 2 µM, 24 h): 30.9%
O=C(NCc1ccccc1)c1c(/N=C/c2c(O)ccc3ccccc23)sc2c1CCCC2 — viability (OCI-Ly1; 0.1 µM, 120 h): 92.4%
COc1cnc2cccc(N3CCc4c(cc(Cn5ccnc5C)cc4-c4cn(C)nc4C(F)(F)F)C3=O)c2c1 — EC50 (HSC-4; cell growth, inhibitor; 120 h): > 30 µM
COc1cc2ncnc(Nc3ccc(Oc4ccccc4)cc3C)c2cc1OC.O=C(O)C(F)(F)F — fractional effect (COLO 205 (BRAF V600E); resazurin; 0.1 µM, 72 h, together with: trametinib 0 nM): 5%
Nc1ncn([C@H]2C[C@H](O)[C@@H](CO)O2)c(=O)n1 — viability (OCI-Ly1; 0.5 µM, 120 h): 24.7%
C=C1C(=O)O[C@@H]2/C=C(\C)CC/C=C(\C)CC[C@@H]12 — fitted top MyBP-C level (iPSC-derived cardiomyocytes; concentration-response fit; concentration not given; relative to: vehicle): 104%
Nc1cccc2c1C(=O)N(C1CCC(=O)NC1=O)C2=O (stereo not shown) — surface marker level (RPMI-8226; flow cytometry, item: CD27; concentration not given; relative to: comparator compound alone): 45.2%
CN(C)c1ccc(C(=O)NCCCCCC(=O)NO)cc1 — viability (OCI-Ly1; 1 µM, 120 h): 86.9%
O=[N+]([O-])c1ccc(O)cc1 — Emax (human cells; reporter gene, agonist, luciferase reporter; relative to: positive control): 8.05%
O=C(/C=C/C#Cc1cccc(NS(=O)(=O)c2ccccc2)c1)NO — viability (OCI-Ly1; 0.5 µM, 120 h): 63%
CCN(CCO)CCCC(C)Nc1ccnc2cc(Cl)ccc12 (stereo not shown) — maximal upstroke velocity (hiPSC-derived ventricular cardiomyocytes; action potential, current clamp, externally paced; 10 µM): 19.8 mV/ms and 20.5 mV/ms and 26.6 mV/ms and 23.4 mV/ms and 25.5 mV/ms and 14.8 mV/ms and 15.6 mV/ms and 16.5 mV/ms
Cc1cccc(C)c1OCC(C)N (stereo not shown) — Kd (Nuclear receptor subfamily 2 group C member 2 ligand-binding domain; binding): 15.1 nM
CCOc1ccc(-c2nc3cc(-c4nc5cc(N6CCN(C)CC6)ccc5[nH]4)ccc3[nH]2)cc1OCC — growth percent (786-0; cell growth, NCI-60 SRB; 10 µM, 48 h): 22.3%
O=C(/C=C/C=C/C=C/C1CCCCC1)NC1=C[C@@](O)(/C=C/C=C/C=C/C(=O)NC2=C(O)CCC2=O)[C@@H]2O[C@@H]2C1=O — GI50 (jhos2; cell growth, inhibitor, CellTiter-Glo luminescence; 78 h; relative to: day 0 cell count): 13.4 µM
O=Cc1ccc(C(=O)N2CCCC(O)C2)cc1 (stereo not shown) — EC50 (YWHAG/RELA phospho-Ser45 p65 peptide; ternary complex formation, stabilizer, fluorescence anisotropy): > 1000 µM
COc1ccc(CCc2nc3cc(-c4c(C)noc4C)ccc3n2C[C@H](C)N2CCOCC2)cc1Cl — viability (OCI-Ly1; 0.1 µM, 120 h): 130%
Nc1cc(OCc2ccc(C(F)(F)F)cc2)ccc1NC(=O)CO — viability (sample A patient iPSC-derived NPCs; MTS; 10 µM, 24 h; relative to: vehicle): 108 ± 2.13%
